Measurements from different studies.
Protocols differ between the studies behind these lines. ± gives the spread as reported. Converted amounts (≈) assume the structure as drawn. Where no end group is shown, it is not given here.
MAL12: Alpha-glucosidase MAL12 (MAL12, Saccharomyces cerevisiae S288c, UniProt P53341)
Sequence of UniProt P53341 (whole entry, looked up): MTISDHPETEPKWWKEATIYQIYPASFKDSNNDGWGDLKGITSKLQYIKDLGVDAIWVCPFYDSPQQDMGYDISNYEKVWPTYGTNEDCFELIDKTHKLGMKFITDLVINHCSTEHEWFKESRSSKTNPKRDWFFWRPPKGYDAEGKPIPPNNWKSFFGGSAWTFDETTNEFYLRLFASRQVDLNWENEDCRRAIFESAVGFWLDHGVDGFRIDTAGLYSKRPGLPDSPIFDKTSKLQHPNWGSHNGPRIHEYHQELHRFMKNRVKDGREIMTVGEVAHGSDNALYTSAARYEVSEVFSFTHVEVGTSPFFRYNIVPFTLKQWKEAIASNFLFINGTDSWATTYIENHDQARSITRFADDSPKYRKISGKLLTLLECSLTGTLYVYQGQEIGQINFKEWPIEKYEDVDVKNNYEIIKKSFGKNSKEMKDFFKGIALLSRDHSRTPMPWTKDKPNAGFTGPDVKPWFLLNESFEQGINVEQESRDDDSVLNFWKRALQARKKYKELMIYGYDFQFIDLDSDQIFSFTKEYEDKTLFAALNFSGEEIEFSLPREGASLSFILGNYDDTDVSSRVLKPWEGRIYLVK
SCN9A: Sodium channel protein type 9 subunit alpha (SCN9A, Homo sapiens, UniProt Q15858)
Sequence of UniProt Q15858 (whole entry, looked up): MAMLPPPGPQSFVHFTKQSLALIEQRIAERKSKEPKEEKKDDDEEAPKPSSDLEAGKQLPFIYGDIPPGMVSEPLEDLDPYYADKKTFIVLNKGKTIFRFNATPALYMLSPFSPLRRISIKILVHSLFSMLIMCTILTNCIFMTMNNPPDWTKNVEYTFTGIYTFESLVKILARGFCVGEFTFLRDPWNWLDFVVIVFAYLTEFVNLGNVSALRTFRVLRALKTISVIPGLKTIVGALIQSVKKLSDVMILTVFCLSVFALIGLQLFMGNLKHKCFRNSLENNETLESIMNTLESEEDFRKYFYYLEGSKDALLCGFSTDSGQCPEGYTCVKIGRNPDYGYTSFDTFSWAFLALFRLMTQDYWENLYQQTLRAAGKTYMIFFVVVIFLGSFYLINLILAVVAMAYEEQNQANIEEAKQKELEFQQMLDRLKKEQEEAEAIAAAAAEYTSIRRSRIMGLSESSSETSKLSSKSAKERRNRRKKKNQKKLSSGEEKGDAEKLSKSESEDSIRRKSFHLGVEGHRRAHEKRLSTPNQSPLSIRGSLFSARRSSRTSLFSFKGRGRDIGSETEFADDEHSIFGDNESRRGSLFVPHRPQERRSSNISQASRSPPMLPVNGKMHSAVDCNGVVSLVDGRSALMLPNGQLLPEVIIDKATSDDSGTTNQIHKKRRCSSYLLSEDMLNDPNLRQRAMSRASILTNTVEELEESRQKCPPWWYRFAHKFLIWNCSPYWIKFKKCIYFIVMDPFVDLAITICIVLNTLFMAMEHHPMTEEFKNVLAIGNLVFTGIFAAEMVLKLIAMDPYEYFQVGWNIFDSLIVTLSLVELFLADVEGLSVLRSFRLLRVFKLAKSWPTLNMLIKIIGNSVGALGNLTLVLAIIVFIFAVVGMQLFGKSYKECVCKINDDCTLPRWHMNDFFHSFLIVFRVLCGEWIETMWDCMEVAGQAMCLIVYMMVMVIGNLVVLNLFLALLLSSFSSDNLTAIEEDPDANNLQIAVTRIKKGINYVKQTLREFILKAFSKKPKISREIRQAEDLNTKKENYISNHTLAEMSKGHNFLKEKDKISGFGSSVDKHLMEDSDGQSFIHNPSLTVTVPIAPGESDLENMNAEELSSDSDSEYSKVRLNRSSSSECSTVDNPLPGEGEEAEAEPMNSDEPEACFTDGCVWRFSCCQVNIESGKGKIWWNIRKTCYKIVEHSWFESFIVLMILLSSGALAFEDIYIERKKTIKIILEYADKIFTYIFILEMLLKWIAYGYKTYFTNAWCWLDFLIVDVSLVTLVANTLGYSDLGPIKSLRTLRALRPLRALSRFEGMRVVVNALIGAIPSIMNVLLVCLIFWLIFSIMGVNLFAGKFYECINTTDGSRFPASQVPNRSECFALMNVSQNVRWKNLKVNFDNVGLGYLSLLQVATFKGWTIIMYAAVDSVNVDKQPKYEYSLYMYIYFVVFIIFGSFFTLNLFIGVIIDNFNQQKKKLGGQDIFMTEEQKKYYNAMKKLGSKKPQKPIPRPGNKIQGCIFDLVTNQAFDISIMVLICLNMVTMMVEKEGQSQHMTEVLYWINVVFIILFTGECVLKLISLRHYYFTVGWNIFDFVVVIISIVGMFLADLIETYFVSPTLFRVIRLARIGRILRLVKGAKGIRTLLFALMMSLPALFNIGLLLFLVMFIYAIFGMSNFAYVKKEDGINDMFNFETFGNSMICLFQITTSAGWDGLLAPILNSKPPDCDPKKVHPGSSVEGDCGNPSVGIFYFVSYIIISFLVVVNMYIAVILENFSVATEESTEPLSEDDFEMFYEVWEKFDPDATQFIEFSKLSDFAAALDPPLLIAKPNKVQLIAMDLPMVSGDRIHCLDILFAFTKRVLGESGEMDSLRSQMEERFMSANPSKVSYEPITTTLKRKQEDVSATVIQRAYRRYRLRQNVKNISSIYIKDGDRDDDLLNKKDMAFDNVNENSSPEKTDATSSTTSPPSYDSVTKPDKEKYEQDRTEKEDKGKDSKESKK
HBA1 with beta chain: Hemoglobin subunit alpha, with beta chain (HBA1, Homo sapiens, UniProt P69905)
Sequence of UniProt P69905 (whole entry, looked up): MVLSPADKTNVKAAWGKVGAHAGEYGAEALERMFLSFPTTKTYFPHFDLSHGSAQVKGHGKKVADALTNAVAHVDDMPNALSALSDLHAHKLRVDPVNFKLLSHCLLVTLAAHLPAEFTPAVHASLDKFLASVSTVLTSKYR
WWOX WW1 domain: WW domain-containing oxidoreductase, WW1 domain (WWOX, Homo sapiens, UniProt Q9NZC7)
Sequence of UniProt Q9NZC7 (whole entry, unmodified, looked up): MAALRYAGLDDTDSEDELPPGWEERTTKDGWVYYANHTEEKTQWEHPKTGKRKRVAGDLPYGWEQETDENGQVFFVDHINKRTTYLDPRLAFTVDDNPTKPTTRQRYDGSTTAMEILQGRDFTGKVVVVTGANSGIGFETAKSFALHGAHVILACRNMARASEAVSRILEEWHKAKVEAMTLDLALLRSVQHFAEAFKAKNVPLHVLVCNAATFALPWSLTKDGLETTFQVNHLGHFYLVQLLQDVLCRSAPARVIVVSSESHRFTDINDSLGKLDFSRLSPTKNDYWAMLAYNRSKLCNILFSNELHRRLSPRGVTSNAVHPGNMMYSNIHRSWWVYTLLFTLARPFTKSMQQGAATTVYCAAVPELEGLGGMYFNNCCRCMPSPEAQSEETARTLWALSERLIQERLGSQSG
HSPA1A with Hdj2: Heat shock 70 kDa protein 1A, with Hdj2 (HSPA1A, Homo sapiens, UniProt P0DMV8)
Sequence of UniProt P0DMV8 (whole entry, looked up): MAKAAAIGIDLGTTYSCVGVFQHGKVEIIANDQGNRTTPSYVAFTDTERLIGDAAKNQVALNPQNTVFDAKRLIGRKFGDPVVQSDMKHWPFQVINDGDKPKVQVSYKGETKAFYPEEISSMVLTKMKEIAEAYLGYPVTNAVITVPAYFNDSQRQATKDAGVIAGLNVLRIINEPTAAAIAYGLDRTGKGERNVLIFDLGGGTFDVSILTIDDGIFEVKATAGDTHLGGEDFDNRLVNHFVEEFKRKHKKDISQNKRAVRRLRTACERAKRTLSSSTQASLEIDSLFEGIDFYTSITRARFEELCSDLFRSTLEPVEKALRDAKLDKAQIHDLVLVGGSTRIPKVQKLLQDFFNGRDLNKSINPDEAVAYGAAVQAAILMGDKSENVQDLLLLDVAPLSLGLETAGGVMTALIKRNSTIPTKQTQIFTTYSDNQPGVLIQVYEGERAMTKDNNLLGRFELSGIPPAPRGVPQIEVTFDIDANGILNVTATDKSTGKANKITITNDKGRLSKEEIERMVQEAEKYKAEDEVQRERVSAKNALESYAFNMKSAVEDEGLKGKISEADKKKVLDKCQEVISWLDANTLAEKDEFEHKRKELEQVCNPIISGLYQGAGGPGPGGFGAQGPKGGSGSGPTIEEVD
SLC22A5: Organic cation/carnitine transporter 2 (SLC22A5, Homo sapiens, UniProt O76082)
Sequence of UniProt O76082 (whole entry, looked up): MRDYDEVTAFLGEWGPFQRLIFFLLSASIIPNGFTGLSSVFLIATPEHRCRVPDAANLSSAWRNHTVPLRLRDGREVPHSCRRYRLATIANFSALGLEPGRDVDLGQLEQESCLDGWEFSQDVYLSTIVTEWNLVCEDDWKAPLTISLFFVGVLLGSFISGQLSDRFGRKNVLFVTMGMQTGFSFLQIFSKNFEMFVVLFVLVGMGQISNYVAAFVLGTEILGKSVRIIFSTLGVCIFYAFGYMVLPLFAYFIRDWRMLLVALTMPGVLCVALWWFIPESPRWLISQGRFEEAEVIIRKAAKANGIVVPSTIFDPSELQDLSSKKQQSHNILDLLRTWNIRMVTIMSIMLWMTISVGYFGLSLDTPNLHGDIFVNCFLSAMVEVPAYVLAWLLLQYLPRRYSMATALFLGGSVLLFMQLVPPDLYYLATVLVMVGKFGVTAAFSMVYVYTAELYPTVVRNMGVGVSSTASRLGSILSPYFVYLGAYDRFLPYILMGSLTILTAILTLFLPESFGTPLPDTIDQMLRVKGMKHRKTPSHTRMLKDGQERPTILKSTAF
T1: G-quadruplex DNA (Homo sapiens); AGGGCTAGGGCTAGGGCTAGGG
B1: disulfide; chain GLIHQYCQGYWRHVPPSPREAPGAPRSPEPDQKKPRNRRHHPPDT (disulfide (positions not given here))
Sequence of UniProt Q14123 (whole entry, looked up): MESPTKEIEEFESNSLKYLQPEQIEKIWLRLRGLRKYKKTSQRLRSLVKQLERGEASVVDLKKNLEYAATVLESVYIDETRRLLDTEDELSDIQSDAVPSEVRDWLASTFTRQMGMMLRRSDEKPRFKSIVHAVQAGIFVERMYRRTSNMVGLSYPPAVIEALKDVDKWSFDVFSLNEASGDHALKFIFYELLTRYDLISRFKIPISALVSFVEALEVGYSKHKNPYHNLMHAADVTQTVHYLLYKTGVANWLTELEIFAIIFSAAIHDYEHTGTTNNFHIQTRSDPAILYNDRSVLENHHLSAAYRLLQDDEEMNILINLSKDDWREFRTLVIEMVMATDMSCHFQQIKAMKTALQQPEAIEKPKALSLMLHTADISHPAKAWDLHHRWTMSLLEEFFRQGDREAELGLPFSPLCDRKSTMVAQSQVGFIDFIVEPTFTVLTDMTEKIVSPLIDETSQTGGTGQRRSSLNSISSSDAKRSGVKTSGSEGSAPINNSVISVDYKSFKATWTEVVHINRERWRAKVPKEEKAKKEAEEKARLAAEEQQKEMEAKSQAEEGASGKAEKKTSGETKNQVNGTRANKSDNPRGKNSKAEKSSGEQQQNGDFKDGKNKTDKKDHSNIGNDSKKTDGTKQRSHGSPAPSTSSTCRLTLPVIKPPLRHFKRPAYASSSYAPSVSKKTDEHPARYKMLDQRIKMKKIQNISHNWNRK

The inhibition of `O=c1cc(-c2ccccc2)oc2cc(O)ccc12` is reported as less than 1% (MAL12; enzyme activity, inhibitor; 10 µM, together with: p-nitrophenyl α-D-glucopyranoside).
`CCCCCCCCC(=O)N(C)[C@H]1CNC1=O` — result for IC50: “inactive” (N-acylethanolamine-hydrolyzing acid amidase (NAAA, Homo sapiens, UniProt Q02083); enzyme activity, inhibitor, fluorogenic PAMCA hydrolysis; pH 4.5, together with: 5 µM PAMCA).
For `S=C(NC1CCCCC1)N1CCC(c2c[nH]cn2)CC1`, the pKB was 8.26 ± 0.1 (Histamine H3 receptor (HRH3, Homo sapiens, UniProt Q9Y5N1); imetit-stimulated Eu-GTP binding, antagonist, time-resolved fluorescence; membranes; together with: imetit).
Under “capacity factor k′”, `COC(=O)c1scc(C)c1NC(=O)C(C)N1CCSCC1` (centres unmarked) is recorded as 6.8 (SCN9A; cell membrane chromatography; higher = stronger binding).
`O=Cc1ccc(C=O)o1` — result for “association rate constant kon”: 0.15 M⁻¹ s⁻¹ (HBA1 with beta chain; binding, cation-exchange HPLC-UV/Vis; 37 °C).
The ΔH of `CSCC[C@H](NC(=O)[C@@H]1CCCN1C(=O)[C@@H](NC(=O)[C@H](Cc1ccc(O)cc1)NC(=O)[C@H](C)NC(=O)[C@@H]1CCCN1C(=O)[C@@H]1CCCN1C(=O)[C@@H]1CCCN1C(=O)[C@H](CO)NC(=O)[C@H](Cc1c[nH]cn1)NC(=O)CN)[C@@H](C)O)C(=O)N[C@@H](CO)C(=O)O` is reported as -3.66 ± 0.33 kcal/mol (WWOX WW1 domain; binding, ITC; pH 7.0, 25 °C).
The peak modification of `CC(C)(C)OC(=O)OCc1ccc(C=O)o1` is reported as 25.1% (HBA1 with beta chain; refers to: haemoglobin A adduct; human normal whole blood; 2 mM, 24 h, hematocrit 30%).
`CC1=C(C(=O)OCc2ccccc2)C(c2ccc(-c3ccccc3C)cc2)NC(=O)N1CCCCCc1nnn[nH]1` (centres unmarked) — result for “fold change in activity”: -3 fold (HSPA1A with Hdj2; ATPase activity, inhibitor; 100 µM, Hsp40-stimulated activity, together with: Hdj2 Hsp70:Hsp40 1:0.5; baseline: DMSO, negative means inhibition).
For `O=Cc1ccc(COc2ccccc2[N+](=O)[O-])o1`, the P50 change was 13.4 ± 5.7% (Hemoglobin subunit alpha, with sickle beta chain (HBA1, Homo sapiens, UniProt P69905); oxygen affinity; sickle red cell lysate; 2000 µM; baseline: untreated).
With `CC/C=C/[C@H](CC)C/C(=C/[C@@]1(CC)C[C@H](CC)[C@H](CC(=O)O)OO1)CC` the remaining binding was 100% (Neuropeptide Y receptor type 1 (NPY1R, Homo sapiens, UniProt P25929); ligand displacement, radioligand; 10 µg/mL, 30 min).
Under “capacity factor k′”, `COC(=O)c1scc(C)c1NC(=O)C(C)N1CCN(C)C(C)C1` (centres unmarked) is recorded as 74.2 (SCN9A; cell membrane chromatography; higher = stronger binding).
`N[C@@H](CSS)C(=O)O`: “pseudo-first-order rate constant” 0.033 ± 0.001 s⁻¹ (Persulfide-sensing transcriptional regulator CstR (Enterococcus faecalis, UniProt Q82ZQ7); thiol modification, oxidant, LC-MS; 1.2 mM, pH 7.4, anaerobic, 60 µM protein).
The inhibition of `COc1c(O)cc(O)c2c(=O)cc(-c3ccc(O)cc3)oc12` is reported as 94.9% (MAL12; enzyme activity, inhibitor, absorbance; 50 µM).
For `COc1cc2c(cc1OC)-c1c/c(=N\c3c(C)cc(C)cc3C)n(C)c(=O)n1CC2`, IC50 read “inactive” (Dual specificity calcium/calmodulin-dependent 3',5'-cyclic nucleotide phosphodiesterase 1C (PDE1C, Homo sapiens, UniProt Q14123); cAMP hydrolysis, inhibitor; up to 50 µM).
The MFI increase of `RNGMKNQFNL` is reported as 539% (H-2 class I histocompatibility antigen, D-B alpha chain, 17 (H2-D1, Mus musculus, UniProt P01899); H2-D binding, flow cytometry; peptide, RMA-S; 10 µg per 100 µL, 3 h).
Under “capacity factor k′”, `CCCNC(C)C(=O)Nc1c(C)csc1C(=O)OC` (centres unmarked) is recorded as 33 (SCN9A; cell membrane chromatography; higher = stronger binding).
For `CC(C)C[C@H](NC(=O)[C@@H](NC(=O)[C@@H](N)[C@@H](C)O)C(C)C)C(=O)N1CCC[C@H]1C(=O)N1CCC[C@H]1C(=O)N1CCC[C@H]1C(=O)N1CCC[C@H]1C(=O)N[C@@H](Cc1ccc(O)cc1)C(=O)N[C@@H](CCCNC(=N)N)C(=O)N[C@@H](Cc1c[nH]cn1)C(=O)N[C@@H](CCCNC(=N)N)C(=O)N[C@@H](CC(N)=O)C(=O)O`, the ΔG was -5.7 ± 0.07 kcal/mol (WW domain-containing oxidoreductase, WW1-WW2 tandem domains (WWOX, Homo sapiens, UniProt Q9NZC7); binding, ITC; pH 7.0, 25 °C).
With `O=c1c(O)c(-c2ccc(O)c(O)c2)oc2cc(O)ccc12` the activation V1/2 was -39.4 mV (Kcnh1, Δ2–173 (Mus musculus, UniProt Q60603); ion current, inside-out patch clamp; 30 µM, amino-terminal deletion mutant).
For `heparin`, “inhibition of binding” read “inhibited” (CRP, trimeric (Homo sapiens, UniProt P02741); binding to C1q, inhibitor; up to 2.5 µg/well, together with: C1q 0.5 µg/well).
`B1` — result for “apparent molecular mass, dimer peak”: 80.2 ± 3 kDa (Neuropilin-2 (NRP2, Homo sapiens, UniProt O60462); sedimentation velocity AUC; 2.5-fold molar excess, 8 µM b1b2 domain).
Under AC50, `CCN1C(=O)c2ccccc2[S+]([O-])c2ccc(C(=O)N(C)Cc3ccc(OC)cc3)cc21` (centres unmarked) is recorded as “inactive” (D(2) dopamine receptor (DRD2, Homo sapiens, UniProt P14416); calcium mobilization, antagonist; HEK293 T-REx D2 Gqi5; up to 77 µM).
For `CC(=O)c1cccc2c1C(=O)c1cccc(O)c1C2=O`, “binding reduction ratio” read 4.7 fold (Signal transducer and activator of transcription 1-alpha/beta, phosphorylated (STAT1, Homo sapiens, UniProt P42224); DNA binding, inhibitor, TIRF-PBM; 20 µM, together with: 50 nM STAT1; baseline: high-affinity sites over half sites).
For `C[n+]1cc(NC(=O)c2ccc3ccc4ccc(C(=O)Nc5cc6ccccc6[n+](C)c5)nc4c3n2)cc2ccccc21`, the Kd was 16.8 nM (T1, G-quadruplex DNA (Homo sapiens); Cy5 fluorescence quenching titration; pH 7.2, KCl 100 mM, first transition).
`COC(=O)c1scc(C)c1NC(=O)C(C)N1CCN(C)CC1` (centres unmarked): “capacity factor k′” 83.2 (SCN9A; cell membrane chromatography; higher = stronger binding).
For `CC[C@]1(O)C[C@H]2CN(CCc3c([nH]c4ccccc34)[C@@](C(=O)OC)(c3cc4c(cc3OC)N(C=O)[C@H]3[C@@](O)(C(=O)OC)[C@H](OC(C)=O)[C@]5(CC)C=CCN6CC[C@]43[C@@H]65)C2)C1`, the inhibition was 87.2% (SLC22A5; transporter uptake, inhibitor; 200 µM).
`COc1ccc2c(=O)c(OC)c(-c3ccccc3)oc2c1` gave an inhibition of 23.2% (MAL12; enzyme activity, inhibitor, absorbance; 50 µM).
`CC(C)C[C@H](NC(=O)[C@@H](NC(=O)[C@@H](N)[C@@H](C)O)C(C)C)C(=O)N1CCC[C@H]1C(=O)N1CCC[C@H]1C(=O)N1CCC[C@H]1C(=O)N1CCC[C@H]1C(=O)N[C@@H](Cc1ccc(O)cc1)C(=O)N[C@@H](CCCNC(=N)N)C(=O)N[C@@H](C)C(=O)N[C@@H](CCCNC(=N)N)C(=O)N[C@@H](CC(N)=O)C(=O)O` — result for “binding enthalpy ΔH”: -11.4 ± 1.41 kcal/mol (WWOX WW1 domain; binding to WW1 domain, isothermal titration calorimetry; concentration not given, pH 7.0, 25 °C).
For `CC1=C(C(=O)OCc2ccccc2)C(c2ccc(-c3ccccc3)cc2)NC(=O)N1Cc1ccc(-c2nnn[nH]2)cc1` (centres unmarked), “fold change in activity” read -5 fold (HSPA1A with Hdj2; ATPase activity, inhibitor; 100 µM, Hsp40-stimulated activity, together with: Hdj2 Hsp70:Hsp40 1:0.5; baseline: DMSO, negative means inhibition).
`VLASVSATHAKSSPY`: “patients with IgE binding” 38% (human IgE; peptide microarray; peptide, peanut/walnut-allergic patient sera; concentration not given, 16 h, 4 °C).
`CCCCCCCCCCCCCCCCOc1ccc(/C=C/C(O)=C/C(=O)/C=C/c2ccc(O)c(OC)c2)cc1OC` gave an emission maximum of 560 nm (Protein kinase C delta type, C1B domain (Prkcd, Mus musculus, UniProt P28867); buffer; 5×1 µM, 1 h, 25 °C, protein excess).
`CQQEPDDLKQKACES`: “patients with IgE binding” 19% (human IgE; peptide microarray; peptide, peanut/walnut-allergic patient sera; concentration not given, 16 h, 4 °C).
`CC(C)C[C@H](NC(=O)[C@@H](NC(=O)[C@@H](N)[C@@H](C)O)C(C)C)C(=O)N1CCC[C@H]1C(=O)N1CCC[C@H]1C(=O)N1CCC[C@H]1C(=O)N1CCC[C@H]1C(=O)N[C@@H](Cc1ccc(O)cc1)C(=O)N[C@@H](C)C(=O)N[C@@H](Cc1c[nH]cn1)C(=O)N[C@@H](CCCNC(=N)N)C(=O)N[C@@H](CC(N)=O)C(=O)O` — result for “entropy term TΔS”: 0.85 ± 0.38 kcal/mol (WWOX WW1 domain; binding to WW1 domain, isothermal titration calorimetry; pH 7.0, 25 °C).
`COc1cc2oc(-c3ccccc3)cc(=O)c2c(OC)c1O` gave an inhibition of less than 1% (MAL12; enzyme activity, inhibitor; 10 µM, together with: p-nitrophenyl α-D-glucopyranoside).
With `CC(C)S[C@@H]1O[C@H](CO)[C@H](O)[C@H](O)[C@H]1O` the MIC was 1100 µM (≈ 262 µg/mL) (PA-I galactophilic lectin (lecA, Pseudomonas aeruginosa, UniProt Q05097); hemagglutination, inhibitor; rabbit erythrocytes; 30 min, 4 °C).
`CCCC/C=C\CCCCCCCCCCCC=O`: “remaining 1-NPN fluorescence” 44.5 ± 2.2% (chemosensory protein 3 (Chilo suppressalis, UniProt V9PY40); binding, competitive ligand, fluorescence competitive binding; highest concentration tested, pH 7.4, protein 2 µM, together with: 1-NPN 2 µM; baseline: no ligand).
For `C[C@H]1CN(C(=O)Nc2ccc(Cl)c(Cl)c2)CCN1c1ccnc(Nc2ccc(Cl)cc2)n1`, the activity ratio was roughly 3 fold (MAL12; enzyme activity, inhibitor; Saccharomyces cerevisiae; together with: p-nitrophenyl glucoside substrate; baseline: S over R enantiomer).
`CC(C)[C@H](NC(=O)[C@@H](N)[C@@H](C)O)C(=O)N[C@@H](C)C(=O)N1CCC[C@H]1C(=O)N1CCC[C@H]1C(=O)N1CCC[C@H]1C(=O)N1CCC[C@H]1C(=O)N[C@@H](Cc1ccc(O)cc1)C(=O)N[C@@H](CCCNC(=N)N)C(=O)N[C@@H](Cc1c[nH]cn1)C(=O)N[C@@H](CCCNC(=N)N)C(=O)N[C@@H](CC(N)=O)C(=O)O`: “binding free energy ΔG” -5.22 ± 0.07 kcal/mol (WWOX WW1 domain; binding to WW1 domain, isothermal titration calorimetry; pH 7.0, 25 °C).
`C[N+](C)(C)C[C@@H](O)CC(=O)[O-]` gave an inhibition of 24.4% (SLC22A5; transporter uptake, inhibitor; 5 µM).
For `O=c1ccn([C@@H]2O[C@H](COP(=O)(O)OP(=O)(O)O)[C@@H](O)[C@H]2O)c(=O)[nH]1`, “exchange rate constant kBA” read 2.5 ± 0.6 Hz (Histo-blood group ABO system transferase (ABO, Homo sapiens, UniProt P16442, G235S/G268A/L266M/R176G); ZZ-exchange NMR; 250 µM, together with: H-disaccharide 1.5 mM).
With `COc1cc2oc(-c3ccc(O)cc3O)c(CC=C(C)C)c(=O)c2c(O)c1/C=C/C(C)C` the IC50 ratio was roughly 10 fold (Sialidase A (nanA, Streptococcus pneumoniae, UniProt P62575); neuraminidase activity, fluorescence; baseline: cpd over oseltamivir).
`CN(C)c1ccc(-c2ccc3ncnc(Nc4ccccc4)c3c2)cc1` — result for “complete inhibition concentration”: roughly 20 µM (Receptor tyrosine-protein kinase erbB-2 (ERBB2, Homo sapiens, UniProt P04626); inhibitor; MCF7).

For quick reference, copied from above:
`O=Cc1ccc(C=O)o1` — result for “association rate constant kon”: 0.15 M⁻¹ s⁻¹ (HBA1 with beta chain; binding, cation-exchange HPLC-UV/Vis; 37 °C).
The ΔH of `CSCC[C@H](NC(=O)[C@@H]1CCCN1C(=O)[C@@H](NC(=O)[C@H](Cc1ccc(O)cc1)NC(=O)[C@H](C)NC(=O)[C@@H]1CCCN1C(=O)[C@@H]1CCCN1C(=O)[C@@H]1CCCN1C(=O)[C@H](CO)NC(=O)[C@H](Cc1c[nH]cn1)NC(=O)CN)[C@@H](C)O)C(=O)N[C@@H](CO)C(=O)O` is reported as -3.66 ± 0.33 kcal/mol (WWOX WW1 domain; binding, ITC; pH 7.0, 25 °C).
